Assay results pooled from the literature.
Lines come from different studies, so protocols differ. ± marks the error that the study gave.

N=C(N)NCCC[C@@H]1NC(=O)[C@H](CCCCNC(=O)CNC(=O)CNC(=O)CNC(=O)CC[C@H](NC(=O)CNC(=O)CNC(=O)CNC(=O)CC[C@H](NC(=O)CN2CCN(CC(=O)O)CCN(CC(=O)O)CCN(CC(=O)O)CC2)C(=O)NCC(=O)NCC(=O)NCC(=O)N[C@@H](CCC(=O)NCC(=O)NCC(=O)NCC(=O)NCCCC[C@@H]2NC(=O)[C@@H](Cc3ccccc3)NC(=O)[C@H](CC(=O)O)NC(=O)CNC(=O)[C@H](CCCNC(=N)N)NC2=O)C(=O)NCC(=O)NCC(=O)NCC(=O)NCCCC[C@@H]2NC(=O)[C@@H](Cc3ccccc3)NC(=O)[C@H](CC(=O)O)NC(=O)CNC(=O)[C@H](CCCNC(=N)N)NC2=O)C(=O)NCC(=O)NCC(=O)NCC(=O)NCCCC[C@@H]2NC(=O)[C@@H](Cc3ccccc3)NC(=O)[C@H](CC(=O)O)NC(=O)CNC(=O)[C@H](CCCNC(=N)N)NC2=O)NC(=O)[C@@H](Cc2ccccc2)NC(=O)[C@H](CC(=O)O)NC(=O)CNC1=O [indium-111 labelled] — tissue uptake (female athymic nu/nu mice, kidney; intravenous, 24 h): 4.44 ± 0.45 %ID/g
[64Cu+2].c1cnc(CNCc2ccc(CN3CCCN4CCNCCCN(CC4)CC3)cc2)nc1 — tissue uptake (CXCR4; NOD/SCID mouse, U87 and U87-stb-CXCR4 xenografts, spleen; iv, 90 min, ex vivo, with: AMD3465 25 mg/kg sc before tracer): 6.48 ± 2.18 %ID/g
COc1ccc2c(c1)c(CC(=O)[O-])c(C)n2C(=O)c1ccc(Cl)cc1.COc1ccc2c(c1)c(CC(=O)[O-])c(C)n2C(=O)c1ccc(Cl)cc1.[Co+2].c1c[nH]cn1.c1c[nH]cn1 — cathodic peak potential (calf thymus DNA; cyclic voltammetry; DMSO/buffer; Co(II)/Co(I) couple, with DNA): -707 mV
C=CC(=O)Nc1cc(Nc2nccc(-c3cn(C)c4ccccc34)n2)c(OCC(F)(F)F)nc1N(C)CCN(C)C — activity vs control (CYP2C19 (Homo sapiens, UniProt P33261); enzyme activity, inhibitor; human, liver microsomes; 0.33 µM): 108%
O=C(O)CCC(NP(=O)(O)OCCC[C@@H](NC(=O)CC[C@H](NC(=O)CCCCCNC(=O)c1ccc([18F])cc1)C(=O)O)C(=O)O)C(=O)O (stereo partly shown) — tracer uptake (CWR22Rv1 tumour model; host not given, muscle; 1 h, tumour-bearing): 0.112 %ID/g
CCCC[C@H](NC(=O)CCCCCCCNC(=O)CN1CCN(CC(=O)O)CCN(CC(=O)O)CC1)C(=O)N[C@H]1CC(=O)NCCCC[C@@H](C(N)=O)NC(=O)[C@H](Cc2c[nH]c3ccccc23)NC(=O)[C@H](CCCNC(=N)N)NC(=O)[C@@H](Cc2ccccc2)NC(=O)[C@H](Cc2c[nH]cn2)NC1=O [copper-64 labelled] — tissue uptake (C57 mice, spleen; intravenous, 0.37 MBq, 4 h): 0.18 ± 0.09 %ID/g
CC[C@H]1[C@@H](O)[C@@H]2[C@H](CC[C@]3(C)[C@@H]([C@H](C)CCOS(=O)(=O)[O-])CC[C@@H]23)[C@@]2(C)CC[C@@H](O)C[C@@H]12.[Na+] — inflammation score (histology; ob/ob NASH mouse model, liver; oral, 10 mg/kg once daily, before treatment, baseline of 8 week study, scale 0 to 3; direction not given): 3
CC(C)=CCc1cc(-c2coc3cc(O)c(CC=C(C)C)c(O)c3c2=O)ccc1O — viability (K562; cell growth or viability, MTT; 12.5 µg/mL): 95.8%
CC(=O)N[C@H](C(=O)N[C@H](C(=O)N[C@@H](CCCNC(=N)N)C(=O)N1Cc2ccccc2C[C@H]1C(=O)N[C@@H](Cc1ccccc1)C(N)=O)C1CCCCC1)C(C)C — cytokine level (human PBMC; Bio-Plex multiplex, refers to: IL-12(p70); 500 µg/mL, 24 h): 2.5 ± 2 pg/mL
CCc1cccc2c(C(=O)COC(=O)C34CC5CC(CC(Br)(C5)C3)C4)c[nH]c12 — shoot dry weight (Oryza sativa; Nipponbare; concentration not given, 40 days, 40-day-old plants): no effect
[64Cu+2].c1ccc(CNCc2ccc(CN3CCCN4CCNCCCN(CC4)CC3)cc2)nc1 — tissue uptake (CXCR4; NOD/SCID mouse, U87 xenografts, small intestine; 90 min, with: AMD3465 25 mg/kg sc): 15.1 ± 5.87 %ID/g
CS[Se][C@@H]1O[C@H](COC(C)=O)[C@@H](OC(C)=O)[C@H](OC(C)=O)[C@H]1OC(C)=O — viability (Trypanosoma brucei brucei; bioluminescence; bloodstream form; 5 µM, 24 h, 1% DMSO): 82.8 ± 12.1%
Cc1cc(O)c(C=O)c2c1C(=O)Oc1c(CO)c(O)c3c(c1O2)C(O)OC3=O (stereo not shown) — fasting plasma glucose (streptozotocin-induced diabetic male rats, plasma; 10 mg/kg, 5 weeks): 190 ± 7.29 mg/dL
O=C([O-])CN1CCN(CC(=O)[O-])CCN(CC(=O)NCCc2ccc3c(c2)C2C=CCC2C(c2cc4c(cc2Br)OCO4)N3)CCN(CC(=O)[O-])CC1.[111In+3] (stereo not shown) — tracer uptake (Hec50 tumour model; host not given, bone; 4 h, tumour-bearing): 0.12 %ID/g
COc1cc2c(cc1O)[C@]1(O)C(=O)c3c(O)cc4c(c3O[C@@H]1CO2)C=CC(C)(C)O4 — viability (K562; cell growth or viability, MTT; 6.25 µg/mL): 67.8%
NCC(=O)N1CCC[C@H]1C(=O)N1C[C@H](O)C[C@H]1C(=O)O — −ΔG (iron(III) ion; complex formation, from log β; aqueous 0.15 M NaCl; 25 °C, MAH−3 complex species): -3.04 kcal/mol
N=C(N)NCCC[C@@H]1NC(=O)[C@H](CCCCNC(=O)CNC(=O)CNC(=O)CNC(=O)CC[C@H](NC(=O)CNC(=O)CNC(=O)CNC(=O)CN2CCN(CC(=O)O)CCN(CC(=O)O)CCN(CC(=O)O)CC2)C(=O)NCC(=O)NCC(=O)NCC(=O)NCCCC[C@@H]2NC(=O)[C@@H](Cc3ccccc3)NC(=O)[C@H](CC(=O)O)NC(=O)CNC(=O)[C@H](CCCNC(=N)N)NC2=O)NC(=O)[C@@H](Cc2ccccc2)NC(=O)[C@H](CC(=O)O)NC(=O)CNC1=O [indium-111 labelled] — tissue uptake (female athymic nu/nu mice, kidney; intravenous, 72 h): 1.48 ± 0.14 %ID/g
Cn1c(=O)oc2ccc(-c3ccc(CC(C#N)NC(=O)C4CNCCCO4)c(F)c3)cc21 (stereo not shown) — skin exfoliation incidence (human; oral, 40 mg once daily, TEAE, multiple ascending dose): 0%
COC(=O)c1cnc(-c2cnccn2)cc1C(=O)OC.COC(=O)c1cnc(-c2cnccn2)cc1C(=O)OC.O.O.O.O=S(=O)([O-])C(F)(F)F.O=S(=O)([O-])C(F)(F)F.[Cu+2] — fluorescence quenching (calf thymus DNA; ethidium bromide displacement): 5.4%

Repeated from above:
O=C([O-])CN1CCN(CC(=O)[O-])CCN(CC(=O)NCCc2ccc3c(c2)C2C=CCC2C(c2cc4c(cc2Br)OCO4)N3)CCN(CC(=O)[O-])CC1.[111In+3] (stereo not shown) — tracer uptake (Hec50 tumour model; host not given, bone; 4 h, tumour-bearing): 0.12 %ID/g
COc1cc2c(cc1O)[C@]1(O)C(=O)c3c(O)cc4c(c3O[C@@H]1CO2)C=CC(C)(C)O4 — viability (K562; cell growth or viability, MTT; 6.25 µg/mL): 67.8%
NCC(=O)N1CCC[C@H]1C(=O)N1C[C@H](O)C[C@H]1C(=O)O — −ΔG (iron(III) ion; complex formation, from log β; aqueous 0.15 M NaCl; 25 °C, MAH−3 complex species): -3.04 kcal/mol
